# Published values pooled from the literature.
# CDK9: Cyclin-dependent kinase 9 (CDK9, Homo sapiens, UniProt P50750)
# Sequence of UniProt P50750 (whole entry, looked up): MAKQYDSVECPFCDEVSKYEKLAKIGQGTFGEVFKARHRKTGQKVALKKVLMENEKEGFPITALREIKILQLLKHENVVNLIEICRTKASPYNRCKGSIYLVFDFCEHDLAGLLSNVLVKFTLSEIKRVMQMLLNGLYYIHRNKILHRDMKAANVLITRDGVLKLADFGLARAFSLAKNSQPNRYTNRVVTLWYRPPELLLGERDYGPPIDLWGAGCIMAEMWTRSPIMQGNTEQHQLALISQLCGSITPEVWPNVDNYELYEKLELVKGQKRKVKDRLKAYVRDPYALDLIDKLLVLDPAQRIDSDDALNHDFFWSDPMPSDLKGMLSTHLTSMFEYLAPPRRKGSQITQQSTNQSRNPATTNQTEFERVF
# CDK9 with cyclin T1: Cyclin-dependent kinase 9, with cyclin T1 (CDK9, Homo sapiens, UniProt P50750)
# CDK9 with cyclin K: Cyclin-dependent kinase 9, with cyclin K (CDK9, Homo sapiens, UniProt P50750)
Structure (SMILES),target,assay,conditions,how to read,quantity,result
CCOC(=O)[C@@H]1Cc2c(cc([N+](=O)[O-])cc2[N+](=O)[O-])[C@H](O)[C@]12C(=O)Nc1ccc(Br)cc12,CDK9,"binding, competition with immobilised ligand",0.1 µM,,remaining binding,76%
CN(C)[C@H]1C[C@@]23CC[C@@]4(O2)C(=CC[C@]2(C)[C@@H](c5ccc6ccncc6c5)CC[C@H]24)C=C3[C@@H](O)[C@@H]1O,CDK9,"ATP probe labelling, inhibitor, KiNativ profiling",0.1 µM,,inhibition,-11.7%
O=C1NC(=O)c2c1c1cc(F)c[n+]3c1c1c2c2cc(O)ccc2[n]1[Ru-4]312([N]=C=S)[S+]3CC[S+]1CC[S+]2CC3 (stereo not drawn),CDK9 with cyclin T1,enzyme activity,"100 nM, human enzyme, added: 10 µM ATP",reference: untreated,remaining activity,75%
Nc1ccc(/C=C/C(=O)N2CCc3c(oc4c(-c5ccc(F)cc5)cc(-c5ccc(C(=O)N6CCC(F)(F)CC6)cn5)cc34)C2)cn1,CDK9,"binding, competition with immobilised ligand",1 µM,,remaining binding,100%
O=C(O)c1ccccc1/C=N/Nc1nc(-c2ccccc2Cl)cs1,CDK9 with cyclin K,"enzyme activity, inhibitor",1 µM,,inhibition,-6.64%
CC(C)[C@H]1NC(=O)C[C@H]2/C=C/CCSSC[C@@H](NC1=O)C(=O)N[C@H](Cc1cccc3ccccc13)C(=O)NCC(=O)O2,CDK9 with cyclin T1,"enzyme activity, inhibitor",10 µM,,inhibition,5.3%
C[C@H](NCc1ccc(-c2ccc(C(F)(F)F)cc2)cc1)C(N)=O,CDK9,"cell-free assay, competition with immobilised ligand",1 µM,,inhibition,0%
CS(C)(=O)=Nc1ccc(-c2ccc(-c3nc4cc(O[C@@H]5CO[C@H]6[C@@H]5OC[C@H]6O)[nH]c4cc3F)cc2)cc1,CDK9 with cyclin T1,"enzyme activity, inhibitor",10 µM,,inhibition,11%
CN(/N=C/c1ccccc1C(=O)O)c1nc(-c2ccccc2Cl)cs1,CDK9 with cyclin K,"enzyme activity, inhibitor",1 µM,,inhibition,-6.85%

# For quick reference, copied from above:
Structure (SMILES),target,assay,conditions,how to read,quantity,result
CC(C)[C@H]1NC(=O)C[C@H]2/C=C/CCSSC[C@@H](NC1=O)C(=O)N[C@H](Cc1cccc3ccccc13)C(=O)NCC(=O)O2,CDK9 with cyclin T1,"enzyme activity, inhibitor",10 µM,,inhibition,5.3%
